Values quoted from earlier work as cited in several papers.
Each line is one published result; not all experiments were run side by side. ± marks the error that the study gave.

C[C@H](Cc1ccc(O)c(O)c1)[C@@H](C)Cc1ccc(O)c(O)c1
logP (experimental): 5.8

O=C1CN=C(c2ccccc2Cl)c2cc([N+](=O)[O-])ccc2N1
convulsive seizure suppression (rat lithium-pilocarpine status epilepticus; 40 mg/kg, 30 min after SE onset): no effect

CN1CC[C@]23c4c5ccc(O)c4O[C@H]2[C@@H](O)C=C[C@H]3[C@H]1C5
hypothermic dose (hypothermia; rat; subcutaneous): > 32 mg/kg

cisplatin
LDLo (several species): < 10 mg/kg

CCOC(=O)C1=C[C@@H](OC(CC)CC)[C@H](NC(C)=O)[C@@H](NC(=N)N)C1
oral bioavailability (rat; oral): 2%

CC(Cc1ccc(O)cc1)NCC(O)c1cc(O)cc(O)c1 (stereo not shown)
fraction absorbed (human): 60%

CC(Cc1ccc(O)cc1)NCC(O)c1cc(O)cc(O)c1 (stereo not shown)
placental transfer (human): ≤ 90%

COc1cc2ccc(=O)oc2cc1O
pKa (phenol group): 8 to 9

CSCC[C@@H]1NC(=O)[C@H](CC(C)C)NC(=O)[C@H](CCCNC(=N)N)NC(=O)[C@H](CO)NC(=O)[C@@H]2CSSC[C@@H]3NC(=O)[C@H](CO)NC(=O)CNC(=O)[C@H]([C@@H](C)O)NC(=O)[C@H](CSSC[C@H](N)C(=O)N[C@@H](CCCCN)C(=O)NCC(=O)N[C@@H](CCCCN)C(=O)NCC(=O)N[C@@H](C)C(=O)N[C@@H](CCCCN)C(=O)N2)NC(=O)[C@H](CSSC[C@@H](C(N)=O)NC(=O)[C@H](CCCCN)NC(=O)CNC(=O)[C@H](CO)NC(=O)[C@H](CCCNC(=N)N)NC3=O)NC(=O)[C@H](CC(=O)O)NC(=O)[C@H](Cc2ccc(O)cc2)NC1=O
Cmax (plasma; total): 50 nM

COC(=O)[C@@]12OC[C@]34[C@H]([C@@H](O)[C@@H]1O)[C@@]1(C)CC(=O)C(OC(=O)CNC(=O)OC(C)(C)C)=C(C)[C@@H]1C[C@H]3OC(=O)[C@H](OC(=O)C=C(C)C)[C@@H]24
survival (mouse; 10 mg/kg): 0%

CO[C@]12CC[C@@]3(C[C@@H]1C(C)(C)O)[C@H]1Cc4ccc(O)c5c4[C@@]3(CCN1CC1CC1)[C@H]2O5
unbound fraction (brain): 0.309

Cc1cc(N(CCOS(C)(=O)=O)CCOS(C)(=O)=O)ccc1C(=O)O
half-life (plasma): ~5 min

guanidino-oseltamivir
logD (pH 7.4): 0.31 ± 0.05

CC(Cc1ccc(O)cc1)NCC(O)c1cc(O)cc(O)c1 (stereo not shown)
parkinsonism on label (product label; unit not given; 1 = listed, 0 = not listed): 0

O=C1c2ccccc2C(=O)C1(O)O
pKa: 9.3 ± 0.1

COC(=O)[C@@]12OC[C@]34[C@H]([C@@H](O)[C@@H]1O)[C@@]1(C)CC(=O)C(OC(=O)C[C@H](C)N)=C(C)[C@@H]1C[C@H]3OC(=O)[C@H](OC(=O)C=C(C)C)[C@@H]24
survival (mouse; 10 mg/kg): 100%

Some of these lines once more:
C[C@H](Cc1ccc(O)c(O)c1)[C@@H](C)Cc1ccc(O)c(O)c1
logP (experimental): 5.8

cisplatin
LDLo (several species): < 10 mg/kg
